Published values pooled from the literature.
A part holds a random share of what one study measured. Substitutions count along the parent as printed.

Sample 1
Target: CCNF, cyclin fold, Cln2 fusion (human)
Technique: yeast growth competition, sequencing
Matrix: yeast
Notes: strong parent motif
Baseline: not given
Reading: higher = stronger binding
Starting sequence: PKMYT1 docking peptide (human); SFEPRNLLSLFED; partner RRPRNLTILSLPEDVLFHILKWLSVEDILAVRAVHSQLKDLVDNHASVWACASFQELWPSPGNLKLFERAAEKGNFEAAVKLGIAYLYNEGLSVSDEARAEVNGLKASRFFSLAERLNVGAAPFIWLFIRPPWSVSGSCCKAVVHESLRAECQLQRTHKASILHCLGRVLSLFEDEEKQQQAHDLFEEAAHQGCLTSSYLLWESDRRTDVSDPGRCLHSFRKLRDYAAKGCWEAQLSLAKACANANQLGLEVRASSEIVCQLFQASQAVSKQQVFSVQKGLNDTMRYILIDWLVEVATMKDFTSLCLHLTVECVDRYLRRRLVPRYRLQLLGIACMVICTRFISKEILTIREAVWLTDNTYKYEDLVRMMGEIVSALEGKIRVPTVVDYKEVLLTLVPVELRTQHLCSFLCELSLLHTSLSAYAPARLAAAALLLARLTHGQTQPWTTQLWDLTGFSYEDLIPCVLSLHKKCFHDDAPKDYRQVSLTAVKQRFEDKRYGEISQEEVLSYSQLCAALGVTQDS
Variant	normalised enrichment score
R5L	-0.437
R5G	-0.198
L7W	-0.443
L10G	0.438
F2C	1.66
S1G	1.54
N6G	-0.224
L8I	0.775
E12Y	0.951
S1D	0.732
S1C	1.1
N6V	0.362
R5T	-0.452
L8D	-0.468
P4M	-0.5
L7H	-1.3

Sample 2
Target: ABI1, truncated, D143A, DHFR fusion (Arabidopsis thaliana)
Technique: DHFR PCA, deep sequencing
Matrix: yeast
Notes: methotrexate growth selection, single substitutions
With: (+)-ABA 4.8 µM
Baseline: wild-type fitted maximum
Reading: higher = stronger binding
Starting sequence: PYL1, truncated, DHFR fusion (Arabidopsis thaliana); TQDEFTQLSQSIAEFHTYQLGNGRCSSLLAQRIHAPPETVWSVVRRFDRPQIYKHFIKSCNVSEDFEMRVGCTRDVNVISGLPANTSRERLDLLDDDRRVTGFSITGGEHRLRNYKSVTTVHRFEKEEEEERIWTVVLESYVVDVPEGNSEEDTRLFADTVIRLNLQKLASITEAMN
Variant	relative binding score [%]
R74P	0.651
G23M	44.7
L91G	6.3
R111I	-5.36
A175G	83.2
L112P	12.7
K116N	12.5
T106K	17.3
V62F	30
S59C	55.8
P36C	48.2
I172A	20
E130M	62.2
F157P	-0.527

Sample 3
Target: Prothrombin, mature alpha-thrombin (F2, Homo sapiens, UniProt P00734)
Technique: aptamer microarray, sandwich
Molecule type: DNA with 2'F-ANA
Matrix: in vitro
Tested at: 200 nM
Notes: whole 15-mer aptamer, many near background
With: Cy3 exosite-II aptamer, 400 nM
Reading: higher = stronger binding
Oligonucleotide: GGTTGGTGTGGTTGG
Modification	mean fluorescence intensity [a.u.]
2'F-ANA at 4 7 8 9 10 11 13 14 15	84
2'F-ANA at 2 3 6 7 8 9 10 13 15	290
2'F-ANA at 4 6 8 9 11 12 13 14 15	83.2
2'F-ANA at 2 7 8 9 11 13 15	351
2'F-ANA at 1 2 4 5 6 7 8 9 12 14	49.6
2'F-ANA at 1 2 9 10 12 13 15	63.7
2'F-ANA at 2 4 5 7 10 13 14	44.6
2'F-ANA at 4 10 12 13	96.6
2'F-ANA at 5 8 12 14	62.3
2'F-ANA at 2 5 6 8 10 11 13	113
2'F-ANA at 1 2 3 4 5 8 9 13	50.3
2'F-ANA at 1 2 3 5 7 8 9 11 13	57.3
2'F-ANA at 1 2 8 9 15	389
2'F-ANA at 1 3 5 6 8 10 13 14	46
2'F-ANA at 2 6 7 9 10 14	103
2'F-ANA at 1 2 3 4 5 6 8 9 11 13	50.8
2'F-ANA at 1 2 3 5 7 8 9 12 13 15	87
2'F-ANA at 1 3 4 6 7 8 9 10 13 14 15	55.4

Sample 4
Target: Interferon regulatory factor 7, full length, phosphomimetic (IRF7, Homo sapiens, UniProt Q92985, residues 1-503, S101K/S471D/S472D/S475D/S476D/S477D/S483D/S484D/S487D)
Technique: protein-binding microarray
Molecule type: double-stranded DNA, one strand shown
Matrix: in vitro
Tested at: 250 nM
Notes: 60-bp whole probe
With: salmon DNA 0.4 mg/ml
Baseline: random background probes
Reading: higher = stronger binding
Shared flanks, not repeated: GCCTAGCAC … GTCTTGATTCGCTTGACGCTGCTG
Residues (chain): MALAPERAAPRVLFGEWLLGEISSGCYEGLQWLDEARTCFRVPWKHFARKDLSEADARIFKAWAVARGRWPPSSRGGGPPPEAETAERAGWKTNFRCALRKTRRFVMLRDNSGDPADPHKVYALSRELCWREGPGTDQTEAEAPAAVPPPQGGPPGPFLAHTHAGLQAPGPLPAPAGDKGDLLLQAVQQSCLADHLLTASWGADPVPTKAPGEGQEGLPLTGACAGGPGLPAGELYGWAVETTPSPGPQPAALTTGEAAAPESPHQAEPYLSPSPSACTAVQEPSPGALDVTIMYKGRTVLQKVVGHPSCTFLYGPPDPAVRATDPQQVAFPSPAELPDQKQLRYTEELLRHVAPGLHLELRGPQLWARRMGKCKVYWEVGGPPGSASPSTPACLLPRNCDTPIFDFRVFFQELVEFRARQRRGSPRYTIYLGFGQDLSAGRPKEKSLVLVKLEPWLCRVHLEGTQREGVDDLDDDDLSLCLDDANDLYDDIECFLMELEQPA
Oligonucleotide	log fluorescence [z-score]
GACAATATCAGTCTCGAGACGTGCTAG	0.602
GGACGAGCGACGGTGACACTGTGCTAG	-0.492
TTAGGCATCGGACTGGGTTAGTGCTAG	-0.388
GAAGGACTGGGTTTCGGGACGTGCTAG	2.26
TTGCCAATGCTTCTGGTCTTGTGCTAG	-0.486
GACGGTTTCGGTATCGTGACGTGCTAG	10.6
TTAGGTATCCTGTTCCTTTAGTGCTAG	0.48
GACGGTATCGGTCTCGGGAAGTGCTAG	0.996
GCCGAACTGGGGTTTCGAGACGTGCTA	1.96
TAACTTTTTTTTTTCCCTGAGTGCTAG	0.499
GACGTACTGGGTTTCGGGACGTGCTAG	2.31
TTAGGTTTCGGGACTTGGTTAGTGCTA	3.59
GACGAACTGGGGTATCGAGTCGTGCTA	0.224
TTAGATTTCCGGTTTCGATTAGTGCTA	9.58
ATGCCTTTCTCTTGGAGCTTGTGCTAG	0.673
GACGGTATCGGTTTCGTGACGTGCTAG	5.78
TTGTCTCTGTCCCTGTTTCTGTGCTAG	1.33
TTAGAACTGGGGACTAGATTAGTGCTA	-0.418
GACGGTTTCGGAATGGGGACGTGCTAG	10.1

Sample 5
Target: Histone acetyltransferase KAT6A, both winged helices, GST fusion (KAT6A, Homo sapiens, UniProt Q92794, residues 1-181)
Technique: protein binding microarray
Molecule type: double-stranded DNA, one strand shown
Matrix: in vitro
Tested at: not given
Notes: 8-mer, flanks averaged, mean of 2 arrays, mostly near background
Baseline: not given
Reading: higher = stronger binding
Construct (chain): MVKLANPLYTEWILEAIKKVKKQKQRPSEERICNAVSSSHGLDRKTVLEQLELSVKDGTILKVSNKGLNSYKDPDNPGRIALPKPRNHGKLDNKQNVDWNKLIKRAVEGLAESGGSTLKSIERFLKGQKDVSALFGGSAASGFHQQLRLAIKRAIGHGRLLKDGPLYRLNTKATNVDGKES
Oligonucleotide	E-score
TATGTCCA	-0.0244
AAGATGCT	-0.125
ATCAGTAC	-0.0237
ATGGATCC	0.027
GAATCCAA	-0.1
AAAACCTG	-0.194
CCCGAGCC	0.158
GCGCGCCA	0.362
CAAGCAAG	-0.0749
ATTGAATC	-0.125
AGTAATTC	-0.00404
CAGTAGGG	-0.175
AGTGAGGA	-0.373
CTTCGCGA	0.15
CAGGCACA	-0.176
TCAAACAA	0.024
ACGCCAAC	0.0506
AGTCCGTC	0.238
AAAAGCGG	0.311
CTAGGCGA	-0.0221
ACCTAGAG	-0.0535
GTTCGCTA	0.0381
CTGAGGGA	-0.209

Sample 6
Target: Centromere-binding protein 1, full length, His-tagged (CBF1, Saccharomyces cerevisiae, UniProt P17106, residues 1-351)
UniProt P17106, sequence (whole entry, looked up): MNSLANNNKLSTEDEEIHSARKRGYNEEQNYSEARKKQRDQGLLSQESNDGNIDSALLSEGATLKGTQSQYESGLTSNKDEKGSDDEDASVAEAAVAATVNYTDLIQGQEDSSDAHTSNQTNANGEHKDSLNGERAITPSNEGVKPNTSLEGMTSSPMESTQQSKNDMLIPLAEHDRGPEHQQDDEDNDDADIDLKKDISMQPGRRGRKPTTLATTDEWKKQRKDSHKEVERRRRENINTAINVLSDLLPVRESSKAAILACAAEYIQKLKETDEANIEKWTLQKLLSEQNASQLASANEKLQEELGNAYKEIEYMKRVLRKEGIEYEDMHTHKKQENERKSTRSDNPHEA
Technique: competition protein-binding microarray
Molecule type: double-stranded DNA, one strand shown
Matrix: in vitro
Tested at: 2 µM
Notes: whole 60-bp probe, lowest competitor level
With: Pho4 competitor, 0.05 µM
Reading: higher = stronger binding
Oligonucleotide	fluorescence intensity [a.u.]
GGTGATATACTGCGACACAATTTGTGTCTCTACTGTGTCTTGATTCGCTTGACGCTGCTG	95.1
CGGGGTTAAGTTTGTCACTCTACTTGCTTGCAGCAGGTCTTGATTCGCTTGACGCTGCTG	56.2
AAAGCGGTAATTTTTCACGTGCACTCACATATCTATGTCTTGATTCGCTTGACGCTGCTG	1400
CCAAATAAAAGAATGTTCGTGCAAAAAGTTGCAAAAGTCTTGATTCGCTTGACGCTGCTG	76.5
GGAAGTCCACACCGAAGTGTGACGGCTGAGTCTGTGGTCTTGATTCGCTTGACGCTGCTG	51.6
ATCGATTCGAAATCGCACGTAGCTGGTCATACGGCCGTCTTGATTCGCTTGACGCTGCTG	80.5
CTTCTGTAAATTTGACGTGTGGGTGGACGCGCCCCGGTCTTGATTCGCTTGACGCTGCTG	96.2
GATCGGCTACGCAACTACGTGCATCGCTCCGTTGGAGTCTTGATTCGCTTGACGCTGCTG	58.8
CGGAGAGGACCTACCCACGTGCCAGAATTGTTTCAAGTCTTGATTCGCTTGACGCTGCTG	1410
CGGGGTTAAGTTTGAGGAGTGGGTGGCTTGCAGCAGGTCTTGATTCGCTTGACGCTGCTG	74.4
CTTTCCCGATCTTGCATGGTGGGTGTAGCACATTTGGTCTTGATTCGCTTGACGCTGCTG	65.5
CTTCTGTAAATTTTTCACGTGAGTTGACGCGCCCCGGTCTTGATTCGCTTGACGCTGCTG	973
AACTAGATGTTGTCTATCGTGATGGGAAACCAGAGAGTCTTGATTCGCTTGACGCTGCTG	89.7
CAAAAGTATCTTGACAACGTGGTCGAAATTGAGTAAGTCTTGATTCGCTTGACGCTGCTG	237
AAAGCGGTAATTTTTCACGTGGTGTCAAATATCTATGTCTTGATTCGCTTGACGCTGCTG	1960
CGTCCTAGTGATTGCTTAGTGGGTGCCATGAGGAAGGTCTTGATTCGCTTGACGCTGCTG	87.7
AAATTACTAAGTTTTCACGTGACTTACCCCGTATGAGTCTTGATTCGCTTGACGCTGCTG	7840

Excerpt of the above (sample 4):
Oligonucleotide	log fluorescence [z-score]
TAACTTTTTTTTTTCCCTGAGTGCTAG	0.499
TTGTCTCTGTCCCTGTTTCTGTGCTAG	1.33
TTAGATTTCCGGTTTCGATTAGTGCTA	9.58
GACGGTATCGGTTTCGTGACGTGCTAG	5.78
TTAGGTTTCGGGACTTGGTTAGTGCTA	3.59
ATGCCTTTCTCTTGGAGCTTGTGCTAG	0.673
